{"data": "Measured values from different studies", "organism": "Leishmania amazonensis", "note": "Lines come from different studies, so protocols differ. ± marks the error that the study gave."}
{"SMILES": "COc1ccc(OC(=O)/C=C/C#N)cc1", "test": "parasite growth, resazurin", "test system": "mouse Macrophage", "conditions": "24 h, intracellular, amastigote", "endpoint": "IC50", "result": "45.8 µM"}
{"SMILES": "O=[N+]([O-])/C=C/c1ccco1", "test": "motility arrest", "test system": "promastigotes", "conditions": "72 h, 26 °C", "endpoint": "minimal parasiticidal concentration", "result": "8.1 ± 0.4 µM"}
{"SMILES": "O=c1c2cc([N+](=O)[O-])ccc2n(CCN2CCCC2)n1Cc1ccccc1", "test": "parasite growth, resazurin", "conditions": "72 h, promastigote", "endpoint": "IC50", "result": "0.87 µM"}
{"SMILES": "CCOC(=O)c1csc(NN=Cc2ccc(Cl)cc2)n1", "test": "parasite growth", "conditions": "72 h, promastigote", "endpoint": "IC50", "result": "145 µM"}
{"SMILES": "N#C/C=C/C(=O)Oc1ccc(Br)cc1", "test": "parasite growth, resazurin", "conditions": "72 h, promastigote", "endpoint": "IC50", "result": "8.14 µM"}
{"SMILES": "O=[N+]([O-])/C(Br)=C/c1ccco1", "test": "motility arrest", "test system": "promastigotes", "conditions": "72 h, 26 °C", "endpoint": "minimal parasiticidal concentration", "result": "8.1 ± 0.4 µM"}
{"SMILES": "O=c1c2cc([N+](=O)[O-])ccc2n(CCO)n1Cc1ccccc1", "test": "parasite growth, imaging", "test system": "mouse Peritoneal macrophage", "conditions": "48 h, intracellular, amastigote", "endpoint": "IC50", "result": "9.1 µM"}
{"SMILES": "N#C/C=C/C(=O)Oc1cccc(F)c1", "test": "parasite growth, resazurin", "test system": "mouse Macrophage", "conditions": "24 h, intracellular, amastigote", "endpoint": "IC50", "result": "48 µM"}
{"SMILES": "COC(=O)CCn1c2ccc([N+](=O)[O-])cc2c(=O)n1Cc1ccccc1", "test": "parasite growth, resazurin", "conditions": "72 h, promastigote", "endpoint": "IC50", "result": "0.6 µM"}
{"SMILES": "O=[N+]([O-])/C=C/c1ccc(Br)o1", "test": "motility arrest", "test system": "promastigotes", "conditions": "72 h, 26 °C", "endpoint": "minimal parasiticidal concentration", "result": "9.5 ± 0.4 µM"}
{"note": "For quick reference, copied from above:"}
{"SMILES": "CCOC(=O)c1csc(NN=Cc2ccc(Cl)cc2)n1", "test": "parasite growth", "conditions": "72 h, promastigote", "endpoint": "IC50", "result": "145 µM"}
